Measurements pooled from the literature.
Numbered parts are unrelated; each lists some results of a single study.
UniProt P49759, sequence (whole entry, looked up): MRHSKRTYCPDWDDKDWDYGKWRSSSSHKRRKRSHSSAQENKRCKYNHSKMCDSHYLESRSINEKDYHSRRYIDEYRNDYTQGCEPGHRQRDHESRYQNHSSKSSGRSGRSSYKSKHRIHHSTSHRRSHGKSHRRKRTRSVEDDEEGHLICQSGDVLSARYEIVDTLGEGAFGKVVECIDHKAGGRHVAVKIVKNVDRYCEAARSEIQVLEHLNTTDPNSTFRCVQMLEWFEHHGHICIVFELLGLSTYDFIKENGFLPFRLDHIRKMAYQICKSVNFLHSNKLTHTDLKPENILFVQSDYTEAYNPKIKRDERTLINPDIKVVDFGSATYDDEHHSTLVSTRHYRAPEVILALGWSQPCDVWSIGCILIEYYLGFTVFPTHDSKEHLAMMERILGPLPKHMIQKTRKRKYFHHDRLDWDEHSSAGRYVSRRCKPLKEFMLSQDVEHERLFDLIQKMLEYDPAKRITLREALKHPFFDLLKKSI
UniProt P10721, sequence (whole entry, unmodified, looked up): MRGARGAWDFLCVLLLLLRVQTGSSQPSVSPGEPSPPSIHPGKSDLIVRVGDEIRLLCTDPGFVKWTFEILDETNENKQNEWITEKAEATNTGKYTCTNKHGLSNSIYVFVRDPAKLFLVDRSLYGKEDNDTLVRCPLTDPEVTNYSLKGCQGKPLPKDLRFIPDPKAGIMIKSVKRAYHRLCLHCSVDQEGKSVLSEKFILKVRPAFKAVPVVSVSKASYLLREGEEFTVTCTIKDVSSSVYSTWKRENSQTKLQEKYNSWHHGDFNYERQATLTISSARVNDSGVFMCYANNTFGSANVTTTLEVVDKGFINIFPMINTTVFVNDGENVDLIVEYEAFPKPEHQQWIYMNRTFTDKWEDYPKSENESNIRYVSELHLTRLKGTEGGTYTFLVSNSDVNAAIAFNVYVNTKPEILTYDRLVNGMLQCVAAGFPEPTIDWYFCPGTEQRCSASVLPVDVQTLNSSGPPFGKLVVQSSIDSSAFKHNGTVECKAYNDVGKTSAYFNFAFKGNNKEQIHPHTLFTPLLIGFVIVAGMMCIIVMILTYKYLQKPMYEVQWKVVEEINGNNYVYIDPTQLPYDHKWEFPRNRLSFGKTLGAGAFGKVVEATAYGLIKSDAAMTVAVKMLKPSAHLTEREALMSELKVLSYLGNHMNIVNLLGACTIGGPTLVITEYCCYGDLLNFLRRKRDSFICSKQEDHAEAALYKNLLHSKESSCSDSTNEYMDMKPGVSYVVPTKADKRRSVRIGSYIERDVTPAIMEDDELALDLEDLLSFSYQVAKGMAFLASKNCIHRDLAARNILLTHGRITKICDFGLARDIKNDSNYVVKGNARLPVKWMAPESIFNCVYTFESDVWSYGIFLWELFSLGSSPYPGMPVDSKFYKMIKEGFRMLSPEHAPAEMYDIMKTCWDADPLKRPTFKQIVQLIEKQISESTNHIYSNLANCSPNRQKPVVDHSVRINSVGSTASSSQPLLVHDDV
UniProt Q13976, sequence (whole entry, looked up): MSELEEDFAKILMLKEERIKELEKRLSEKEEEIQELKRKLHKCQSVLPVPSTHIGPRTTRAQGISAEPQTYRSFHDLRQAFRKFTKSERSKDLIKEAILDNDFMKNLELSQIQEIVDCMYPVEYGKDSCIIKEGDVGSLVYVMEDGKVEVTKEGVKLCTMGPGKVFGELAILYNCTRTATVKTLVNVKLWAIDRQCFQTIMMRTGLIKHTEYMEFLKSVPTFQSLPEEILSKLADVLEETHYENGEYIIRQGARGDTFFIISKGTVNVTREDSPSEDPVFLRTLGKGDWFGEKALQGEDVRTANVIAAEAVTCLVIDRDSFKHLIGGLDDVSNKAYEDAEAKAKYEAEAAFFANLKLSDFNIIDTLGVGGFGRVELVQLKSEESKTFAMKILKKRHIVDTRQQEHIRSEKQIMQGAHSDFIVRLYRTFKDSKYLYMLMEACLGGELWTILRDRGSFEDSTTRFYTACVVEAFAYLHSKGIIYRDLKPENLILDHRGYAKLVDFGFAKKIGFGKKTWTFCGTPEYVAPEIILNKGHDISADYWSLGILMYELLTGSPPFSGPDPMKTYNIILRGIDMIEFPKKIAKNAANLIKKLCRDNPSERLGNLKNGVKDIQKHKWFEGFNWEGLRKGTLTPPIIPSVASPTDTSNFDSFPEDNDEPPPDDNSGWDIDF
UniProt Q16512, sequence (whole entry, looked up): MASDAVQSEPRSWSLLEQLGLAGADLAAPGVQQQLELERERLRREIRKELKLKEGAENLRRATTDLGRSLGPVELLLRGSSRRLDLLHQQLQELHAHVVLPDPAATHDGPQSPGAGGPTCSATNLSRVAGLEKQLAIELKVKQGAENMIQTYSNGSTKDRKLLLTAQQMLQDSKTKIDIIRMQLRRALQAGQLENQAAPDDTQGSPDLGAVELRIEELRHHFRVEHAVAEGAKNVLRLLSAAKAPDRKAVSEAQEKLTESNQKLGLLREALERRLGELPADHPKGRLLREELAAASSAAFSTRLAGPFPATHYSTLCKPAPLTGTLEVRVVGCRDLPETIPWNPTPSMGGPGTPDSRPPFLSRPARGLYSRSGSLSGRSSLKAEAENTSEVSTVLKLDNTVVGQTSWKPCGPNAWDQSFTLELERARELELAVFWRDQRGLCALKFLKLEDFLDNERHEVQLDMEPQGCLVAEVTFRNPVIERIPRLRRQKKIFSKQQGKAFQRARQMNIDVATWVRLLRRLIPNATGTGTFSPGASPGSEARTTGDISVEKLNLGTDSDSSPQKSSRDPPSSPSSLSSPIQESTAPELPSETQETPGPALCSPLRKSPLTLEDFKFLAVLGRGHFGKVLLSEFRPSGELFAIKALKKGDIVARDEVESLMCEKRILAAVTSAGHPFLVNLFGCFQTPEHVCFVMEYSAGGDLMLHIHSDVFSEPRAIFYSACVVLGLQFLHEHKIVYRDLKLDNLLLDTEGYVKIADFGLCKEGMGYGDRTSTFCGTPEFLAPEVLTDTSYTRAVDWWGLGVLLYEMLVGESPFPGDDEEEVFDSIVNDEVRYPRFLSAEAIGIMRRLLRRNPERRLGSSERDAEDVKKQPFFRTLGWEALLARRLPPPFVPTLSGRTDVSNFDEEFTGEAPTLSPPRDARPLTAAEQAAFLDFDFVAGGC
UniProt P0C264, sequence (whole entry, looked up): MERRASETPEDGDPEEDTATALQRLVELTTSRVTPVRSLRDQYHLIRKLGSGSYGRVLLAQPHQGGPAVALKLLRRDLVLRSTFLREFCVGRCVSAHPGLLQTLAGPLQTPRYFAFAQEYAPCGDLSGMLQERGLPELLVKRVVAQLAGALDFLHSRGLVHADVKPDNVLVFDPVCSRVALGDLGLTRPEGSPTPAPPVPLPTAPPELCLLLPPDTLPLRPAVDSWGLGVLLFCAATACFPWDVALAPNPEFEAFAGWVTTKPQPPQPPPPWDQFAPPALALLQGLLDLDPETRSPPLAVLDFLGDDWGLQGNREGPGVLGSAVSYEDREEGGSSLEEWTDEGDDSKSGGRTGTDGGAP
UniProt Q96SB4, sequence (whole entry, looked up): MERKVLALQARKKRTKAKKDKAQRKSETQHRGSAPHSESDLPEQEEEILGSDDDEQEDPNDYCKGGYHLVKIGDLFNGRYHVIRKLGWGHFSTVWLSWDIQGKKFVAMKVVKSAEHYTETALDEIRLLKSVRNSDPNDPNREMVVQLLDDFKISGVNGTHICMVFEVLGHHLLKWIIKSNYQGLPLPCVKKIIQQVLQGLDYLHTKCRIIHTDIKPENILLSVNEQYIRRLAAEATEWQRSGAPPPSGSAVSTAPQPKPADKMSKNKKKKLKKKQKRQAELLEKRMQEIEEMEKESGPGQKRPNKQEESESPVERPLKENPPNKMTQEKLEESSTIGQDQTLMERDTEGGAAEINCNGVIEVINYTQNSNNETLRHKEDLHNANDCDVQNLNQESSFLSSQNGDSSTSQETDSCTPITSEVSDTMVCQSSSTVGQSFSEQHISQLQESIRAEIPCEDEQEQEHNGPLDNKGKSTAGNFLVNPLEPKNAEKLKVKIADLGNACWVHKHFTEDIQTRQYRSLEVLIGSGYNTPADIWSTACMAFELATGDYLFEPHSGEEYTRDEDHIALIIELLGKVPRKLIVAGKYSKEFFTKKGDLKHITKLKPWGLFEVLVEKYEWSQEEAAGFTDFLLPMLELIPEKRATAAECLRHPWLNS
UniProt Q99558, sequence (whole entry, looked up): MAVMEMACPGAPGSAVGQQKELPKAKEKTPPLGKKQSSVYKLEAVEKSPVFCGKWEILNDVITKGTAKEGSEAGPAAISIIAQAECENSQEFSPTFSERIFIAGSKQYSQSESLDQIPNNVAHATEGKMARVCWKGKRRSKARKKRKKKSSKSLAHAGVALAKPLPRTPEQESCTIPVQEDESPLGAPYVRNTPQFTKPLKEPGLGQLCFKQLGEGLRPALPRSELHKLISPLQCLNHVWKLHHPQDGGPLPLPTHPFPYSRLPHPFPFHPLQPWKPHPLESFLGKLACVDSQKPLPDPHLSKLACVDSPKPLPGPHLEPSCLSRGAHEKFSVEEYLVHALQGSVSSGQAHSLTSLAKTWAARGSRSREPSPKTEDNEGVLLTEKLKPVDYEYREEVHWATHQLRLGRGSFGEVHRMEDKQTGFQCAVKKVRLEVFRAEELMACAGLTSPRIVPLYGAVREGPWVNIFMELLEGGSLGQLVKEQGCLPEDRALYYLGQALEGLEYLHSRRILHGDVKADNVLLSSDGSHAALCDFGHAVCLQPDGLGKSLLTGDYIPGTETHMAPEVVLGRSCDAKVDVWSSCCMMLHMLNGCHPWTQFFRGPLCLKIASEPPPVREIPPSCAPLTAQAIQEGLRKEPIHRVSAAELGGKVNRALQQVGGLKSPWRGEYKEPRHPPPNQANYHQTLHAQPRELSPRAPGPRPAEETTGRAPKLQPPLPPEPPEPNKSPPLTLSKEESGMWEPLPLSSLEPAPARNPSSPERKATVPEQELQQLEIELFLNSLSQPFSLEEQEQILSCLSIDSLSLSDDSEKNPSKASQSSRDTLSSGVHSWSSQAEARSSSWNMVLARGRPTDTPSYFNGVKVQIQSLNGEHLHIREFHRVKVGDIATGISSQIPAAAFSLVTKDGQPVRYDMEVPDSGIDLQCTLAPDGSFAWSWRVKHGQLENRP

Study 1 — read-out: cell-free assay; method: competition with immobilised ligand; concentration: 1 µM
Structure (SMILES): NS(=O)(=O)c1cc(NC(=O)C2(c3ccccc3Cl)CC2)ccc1Oc1cccc(Cl)c1
target | remaining binding [%]
Epithelial discoidin domain-containing receptor 1 (DDR1, Homo sapiens, UniProt Q08345) | 83
Phosphatidylinositol 4-phosphate 3-kinase C2 domain-containing subunit beta (PIK3C2B, Homo sapiens, UniProt O00750) | 100
cGMP-dependent protein kinase 1 (PRKG1, Homo sapiens, UniProt Q13976) | 91
Dual specificity mitogen-activated protein kinase kinase 7 (MAP2K7, Homo sapiens, UniProt O14733) | 100
TRAF2 and NCK-interacting protein kinase (TNIK, Homo sapiens, UniProt Q9UKE5) | 100
Epidermal growth factor receptor (EGFR, Homo sapiens, UniProt P00533, L861Q) | 76
Mast/stem cell growth factor receptor Kit (KIT, Homo sapiens, UniProt P10721, L576P) | 89
Hepatocyte growth factor receptor (MET, Homo sapiens, UniProt P08581) | 81
Citron Rho-interacting kinase (CIT, Homo sapiens, UniProt O14578) | 78
Serine/threonine-protein kinase TAO1 (TAOK1, Homo sapiens, UniProt Q7L7X3) | 91
Mitogen-activated protein kinase kinase kinase 14 (MAP3K14, Homo sapiens, UniProt Q99558) | 100
Mitogen-activated protein kinase kinase kinase 11 (MAP3K11, Homo sapiens, UniProt Q16584) | 79
Dual specificity protein kinase CLK1 (CLK1, Homo sapiens, UniProt P49759) | 59
Serine/threonine-protein kinase LATS2 (LATS2, Homo sapiens, UniProt Q9NRM7) | 68
Uncharacterized serine/threonine-protein kinase SBK3 (SBK3, Homo sapiens, UniProt P0C264) | 74
Serine/threonine-protein kinase N1 (PKN1, Homo sapiens, UniProt Q16512) | 100
Tyrosine-protein kinase ABL1, non-phosphorylated (ABL1, Homo sapiens, UniProt P00519, H396P) | 81
Mitogen-activated protein kinase kinase kinase kinase 5 (MAP4K5, Homo sapiens, UniProt Q9Y4K4) | 100
BDNF/NT-3 growth factors receptor (NTRK2, Homo sapiens, UniProt Q16620) | 100
Mast/stem cell growth factor receptor Kit (KIT, Homo sapiens, UniProt P10721, V559D/V654A) | 100

Study 2 — SMILES: CC(C)CN(C)c1nc(N)c(C(=O)N=C(N)N)nc1Cl; read-out: β-arrestin recruitment; action: agonist; method: PRESTO-Tango; concentration: 10 µM; reference: untreated
target | fold over basal
Probable G-protein coupled receptor 82 (GPR82, Homo sapiens, UniProt Q96P67) | 1.13
Type-2 angiotensin II receptor (AGTR2, Homo sapiens, UniProt P50052) | 1.28
Melanocortin receptor 5 (MC5R, Homo sapiens, UniProt P33032) | 1.1
Cysteinyl leukotriene receptor 1 (CYSLTR1, Homo sapiens, UniProt Q9Y271) | 1.29
PTH2R (Homo sapiens, UniProt P49190) | 0.54
Nociceptin receptor (OPRL1, Homo sapiens, UniProt P41146) | 0.74
Adhesion G protein-coupled receptor E5 (Homo sapiens, UniProt P48960) | 0.64
Neuromedin-K receptor (TACR3, Homo sapiens, UniProt P29371) | 1.02 fold
G-protein coupled receptor 182 (GPR182, Homo sapiens, UniProt O15218) | 0.85
Orexin/Hypocretin receptor type 1 (HCRTR1, Homo sapiens, UniProt O43613) | 0.76 fold
Free fatty acid receptor 3 (FFAR3, Homo sapiens, UniProt O14843) | 0.57 fold
P2Y purinoceptor 14 (P2RY14, Homo sapiens, UniProt Q15391) | 1.2
G-protein coupled receptor 3 (GPR3, Homo sapiens, UniProt P46089) | 0.95

Study 3 — organism: Sarcocystis neurona; read-out: parasite growth; concentration: 10 µM; time: 96 h; notes: second screen; reference: untreated
SMILES | log2 fold change
CCCCCCCCCCC[C@@H](C[C@@H]1OC(=O)[C@H]1CCCCCC)OC(=O)[C@H](CC(C)C)NC=O | -0.35
CCCNCC(O)COc1ccccc1C(=O)CCc1ccccc1 (stereo not drawn) | -1.47
CC(=O)[C@]1(O)Cc2c(O)c3c(c(O)c2[C@@H](O[C@H]2C[C@H](N)[C@H](O)[C@H](C)O2)C1)C(=O)c1ccccc1C3=O | -6.26
COC(=O)C1=C(C)NC(C)=C(C(=O)OC(C)C)C1c1cccc2nonc12 (stereo not drawn) | 0.75
C/C(=C\C(=O)OCCCCCCCCC(=O)O)C[C@@H]1OC[C@H](C[C@@H]2O[C@H]2[C@@H](C)[C@H](C)O)[C@@H](O)[C@H]1O | -0.06
CCN1CCCC1CNC(=O)c1cc(S(=O)(=O)CC)c(N)cc1OC (stereo not drawn) | 0.15
O=C(O)c1cc(-c2ccc(F)cc2F)ccc1O | 0.28
Cc1onc(-c2ccccc2)c1-c1ccc(S(N)(=O)=O)cc1 | 0.29
CC(=O)O[C@@]12CO[C@@H]1C[C@H](O)[C@@]1(C)C(=O)[C@H](O)C3=C(C)[C@@H](OC(=O)[C@H](O)[C@@H](NC(=O)OC(C)(C)C)c4ccccc4)C[C@@](O)([C@@H](OC(=O)c4ccccc4)[C@H]21)C3(C)C | -1
CC(=O)OCC(=O)[C@@]12OC3(CCCC3)O[C@@H]1C[C@H]1[C@@H]3CCC4=CC(=O)C=C[C@]4(C)[C@@]3(F)[C@@H](O)C[C@@]12C | 0.2

Study 4 — Structure (SMILES): COc1cc2ncnc(Nc3cccc(Cl)c3)c2cc1OC; read-out: enzyme activity; action: inhibitor; concentration: 0.5 µM; reference: control
target | remaining activity [%]
Serine/threonine-protein kinase PAK 1 (PAK1, Homo sapiens, UniProt Q13153) | 89.3
Ephrin type-A receptor 6 (EPHA6, Homo sapiens, UniProt Q9UF33) | 27.8
Protein kinase C zeta type (PRKCZ, Homo sapiens, UniProt Q05513) | 102
Casein kinase I isoform delta (CSNK1D, Homo sapiens, UniProt P48730) | 100
Mitogen-activated protein kinase kinase kinase 20 (MAP3K20, Homo sapiens, UniProt Q9NYL2) | 99.3
Dual specificity protein kinase CLK2 (CLK2, Homo sapiens, UniProt P49760) | 89.6
Tyrosine-protein kinase receptor TYRO3 (TYRO3, Homo sapiens, UniProt Q06418) | 96.7
SRSF protein kinase 1 (SRPK1, Homo sapiens, UniProt Q96SB4) | 102
Serine/threonine-protein kinase PAK 6 (PAK6, Homo sapiens, UniProt Q9NQU5) | 81.6
Tyrosine-protein kinase JAK1 (JAK1, Homo sapiens, UniProt P23458) | 90.4
Calcium/calmodulin-dependent protein kinase type 1 (CAMK1, Homo sapiens, UniProt Q14012) | 99.2
Ribosomal protein S6 kinase alpha-3 (RPS6KA3, Homo sapiens, UniProt P51812) | 87.8
Vascular endothelial growth factor receptor 1 (FLT1, Homo sapiens, UniProt P17948) | 74.4
Serine/threonine-protein kinase SIK2 (SIK2, Homo sapiens, UniProt Q9H0K1) | 98.7
Insulin-like growth factor 1 receptor (IGF1R, Homo sapiens, UniProt P08069) | 75.9
Serine/threonine-protein kinase Sgk2 (SGK2, Homo sapiens, UniProt Q9HBY8) | 97.8
Protein kinase C theta type (PRKCQ, Homo sapiens, UniProt Q04759) | 105
Casein kinase I isoform epsilon (CSNK1E, Homo sapiens, UniProt P49674) | 75.3
Cyclin-dependent kinase 2, with cyclin E (CDK2, Homo sapiens, UniProt P24941) | 90.4
Ephrin type-A receptor 2 (EPHA2, Homo sapiens, UniProt P29317) | 85.2
Tyrosine-protein kinase Tec (TEC, Homo sapiens, UniProt P42680) | 126
Calcium/calmodulin-dependent protein kinase kinase 1 (CAMKK1, Homo sapiens, UniProt Q8N5S9) | 92.2
Dual specificity protein kinase CLK1 (CLK1, Homo sapiens, UniProt P49759) | 103

Excerpt of the above (study 1):
target | remaining binding [%]
Dual specificity mitogen-activated protein kinase kinase 7 (MAP2K7, Homo sapiens, UniProt O14733) | 100
TRAF2 and NCK-interacting protein kinase (TNIK, Homo sapiens, UniProt Q9UKE5) | 100
Epidermal growth factor receptor (EGFR, Homo sapiens, UniProt P00533, L861Q) | 76
Mast/stem cell growth factor receptor Kit (KIT, Homo sapiens, UniProt P10721, L576P) | 89
Hepatocyte growth factor receptor (MET, Homo sapiens, UniProt P08581) | 81
Citron Rho-interacting kinase (CIT, Homo sapiens, UniProt O14578) | 78
Serine/threonine-protein kinase TAO1 (TAOK1, Homo sapiens, UniProt Q7L7X3) | 91
Mitogen-activated protein kinase kinase kinase 14 (MAP3K14, Homo sapiens, UniProt Q99558) | 100
Mitogen-activated protein kinase kinase kinase 11 (MAP3K11, Homo sapiens, UniProt Q16584) | 79
